Published values from different studies.
Numbered parts are unrelated; each lists some results of a single study.
Sequence of UniProt P14921 (whole entry, unmodified, looked up): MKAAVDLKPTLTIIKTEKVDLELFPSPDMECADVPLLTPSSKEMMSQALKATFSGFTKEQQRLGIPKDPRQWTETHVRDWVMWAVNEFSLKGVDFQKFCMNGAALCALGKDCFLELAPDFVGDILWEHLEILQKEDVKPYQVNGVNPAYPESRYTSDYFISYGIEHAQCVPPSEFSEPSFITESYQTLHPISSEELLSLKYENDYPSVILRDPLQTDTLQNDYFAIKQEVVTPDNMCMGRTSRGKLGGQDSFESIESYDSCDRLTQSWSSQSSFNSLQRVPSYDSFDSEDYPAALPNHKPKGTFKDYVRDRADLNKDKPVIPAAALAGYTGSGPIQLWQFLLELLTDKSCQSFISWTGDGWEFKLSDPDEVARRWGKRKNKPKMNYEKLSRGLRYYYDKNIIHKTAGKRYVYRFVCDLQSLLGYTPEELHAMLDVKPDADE

Block 1
Target: Replicase polyprotein 1ab, polymerase (rep, Severe acute respiratory syndrome coronavirus 2, UniProt P0DTD1)
Observed: enzyme activity
Action: inhibitor
Tested at: 20 µM
Quantity: inhibition
Structure (SMILES) = COc1oc(=O)c2cc(N)ccc2c1Cl; result = 0.95%
Structure (SMILES) = Clc1ccc(CCCOCCCN2CCCCC2)cc1; result = -1.44%
Structure (SMILES) = CC(C)c1cc(C(C)C)c(CC(=O)NS(=O)(=O)Oc2c(C(C)C)cccc2C(C)C)c(C(C)C)c1; result = 4.42%
Structure (SMILES) = O=C(O)CCn1c2c(c3ccccc31)C[C@H](NS(=O)(=O)c1ccc(F)cc1)CC2; result = -8.43%
Structure (SMILES) = CC1(C)CC[C@]2(C(=O)O)CC[C@]3(C)[C@H](C(=O)C=C4[C@@]5(C)C=C(C#N)C(=O)C(C)(C)[C@@H]5CC[C@]43C)[C@@H]2C1; result = 1.56%
Structure (SMILES) = NC(=O)C[S+]([O-])C(c1ccccc1)c1ccccc1 (centres unmarked); result = -6.98%
Structure (SMILES) = COc1ccc(CN(CCN(C)C)c2ncccn2)cc1; result = -4.98%
Structure (SMILES) = CCN1C[C@]2(OC(=O)c3ccccc3NC(C)=O)CC[C@H](OC)[C@@]34[C@@H]2C[C@@H]([C@@H]13)[C@@]1(O)C[C@H](OC)[C@H]2C[C@@H]4[C@]1(O)[C@H]2OC; result = -4.33%
Structure (SMILES) = Clc1ccccc1C(c1ccccc1)(c1ccccc1)n1cccn1; result = -6.78%
Structure (SMILES) = Cc1ccnc2c1NC(=O)c1cccnc1N2C1CC1; result = -2.92%
Structure (SMILES) = O=C(Nc1ccccc1C(=O)Nc1ccc(CCO)cc1)c1ccc([N+](=O)[O-])cc1; result = 3.56%
Structure (SMILES) = CSc1ccccc1Nc1nc(N2CCNCC2)nc2c(NCC3CC3)ncnc12; result = 20.7%
Structure (SMILES) = N[C@H]1CCN(O)C1=O; result = 3.42%
Structure (SMILES) = O=C(NO)C1(CS(=O)(=O)c2ccc(Oc3ccc(Cl)cc3)cc2)CCOCC1; result = -4.98%
Structure (SMILES) = CC1(C)O[C@@H]2C[C@H]3[C@@H]4C[C@H](F)C5=CC(=O)C=C[C@]5(C)[C@H]4[C@@H](O)C[C@]3(C)[C@]2(C(=O)CO)O1; result = 18.5%
Structure (SMILES) = CCC1(C)CC(=O)NC(=O)C1; result = 1.05%
Structure (SMILES) = CC(C)Nc1cc(-c2c[nH]c(C(=O)N[C@H](CO)c3cccc(Cl)c3)c2)c(Cl)cn1; result = 1.08%
Structure (SMILES) = c1ccc(CCCCN2CCC(c3ccccc3)CC2)cc1; result = -4.45%
Structure (SMILES) = COc1cc(NS(=O)(=O)c2ccc(N)cc2)ncn1; result = 21.5%
Structure (SMILES) = c1ccc2c(CC3=NCCN3)cccc2c1; result = 14.6%
Structure (SMILES) = CN(CC[C@@H](Oc1ccc(-c2ccccc2)cc1)c1ccc(F)cc1)CC(=O)O; result = 5.59%
Structure (SMILES) = O=C(O)[C@H]1O[C@H](O)[C@H](O)[C@@H](O)[C@@H]1O; result = 1.97%
Structure (SMILES) = C[C@@H]1CN(CC(=O)Nc2ccc3c(c2)Cc2cccc(-c4cc(=O)cc(N5CCOCC5)o4)c2S3)C[C@H](C)O1; result = -4%
Structure (SMILES) = CCCCCCCCCCCCCCCCNc1ccc(C(=O)O)cc1; result = 17.8%
Structure (SMILES) = CCCCc1nc(Cl)c(C(=O)O)n1Cc1ccc(-c2ccccc2-c2nn[nH]n2)cc1; result = 5.65%

Block 2
Organism: SARS-CoV-2
Observed: cytopathic effect
Cells: Vero E6
Tested at: 10 µM
Quantity: inhibition
SMILES = COC(=O)CC[C@H](NC(=O)[C@H](CC(=O)OC)NC(=O)OCc1ccccc1)C(=O)N[C@H](C(=O)N[C@@H](CC(=O)OC)C(=O)CF)C(C)C; result = 7.5%
SMILES = CNC[C@H](O)c1ccc(O)c(O)c1; result = 10.8%
SMILES = C=CC(=O)c1ccc2ccccc2c1; result = -2.1%
SMILES = CCC[C@H](NC(=O)/C(C#N)=C/c1cccc(Br)n1)c1ccccc1; result = -39.9%
SMILES = CCN(CC)C(=S)S; result = -2.5%

Block 3
Target: Phosphate system positive regulatory protein PHO4, full length, GST-tagged (PHO4, Saccharomyces cerevisiae, UniProt P07270, residues 1-312)
Method: competition protein-binding microarray
Molecule type: double-stranded DNA, one strand shown
Medium: in vitro
Tested at: 2 µM
Notes: whole 60-bp probe, lowest competitor level
Added: Cbf1 competitor, 0.05 µM
Reading: higher = stronger binding
Quantity: fluorescence intensity
Target sequence (chain): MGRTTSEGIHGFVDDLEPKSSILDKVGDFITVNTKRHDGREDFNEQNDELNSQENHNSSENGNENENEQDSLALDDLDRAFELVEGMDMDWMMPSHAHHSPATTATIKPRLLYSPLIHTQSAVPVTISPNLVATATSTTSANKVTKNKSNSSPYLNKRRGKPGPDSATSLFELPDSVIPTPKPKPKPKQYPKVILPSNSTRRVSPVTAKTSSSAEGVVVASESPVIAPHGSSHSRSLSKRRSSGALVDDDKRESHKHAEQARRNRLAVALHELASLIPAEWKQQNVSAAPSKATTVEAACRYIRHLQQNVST
Oligonucleotide = TACTAATAGGCGTCCCACGTTTGAATTTCTTTTTTTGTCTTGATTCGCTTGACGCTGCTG; result = 10300 a.u.
Oligonucleotide = ATATATATATGCGGCTGCGTGCGGATATTCTCCCGGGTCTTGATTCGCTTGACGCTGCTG; result = 5440 a.u.
Oligonucleotide = CTAACGAAGGTTTGTCACTATACTTACAAGCCAAGTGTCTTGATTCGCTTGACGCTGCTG; result = 3100 a.u.
Oligonucleotide = ACTAAACAGTATATTCACGTGATGGCTTTGCCTTACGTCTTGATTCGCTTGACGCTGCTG; result = 14900 a.u.
Oligonucleotide = ACATGTACCAAGTAACCTTTTCCAATAAAATTTCAAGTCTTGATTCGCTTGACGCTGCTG; result = 5190 a.u.
Oligonucleotide = CGGGGTTAAGTTTGCAGAGTGGGTGGCTTGCAGCAGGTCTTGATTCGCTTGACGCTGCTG; result = 4340 a.u.
Oligonucleotide = GTCGCAGTGTCGTCGTACGTGATGGGGGCAGGCTTGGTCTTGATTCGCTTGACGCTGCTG; result = 4440 a.u.
Oligonucleotide = CTAATTCAGCACCAACACGTGAGATCCAACTAATAAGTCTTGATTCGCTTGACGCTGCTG; result = 15500 a.u.

Block 4
Target: Ras GTPase-activating protein-binding protein 1, RRM domain (G3BP1, Homo sapiens, UniProt Q13283)
Sequence of UniProt Q13283 (whole entry, looked up): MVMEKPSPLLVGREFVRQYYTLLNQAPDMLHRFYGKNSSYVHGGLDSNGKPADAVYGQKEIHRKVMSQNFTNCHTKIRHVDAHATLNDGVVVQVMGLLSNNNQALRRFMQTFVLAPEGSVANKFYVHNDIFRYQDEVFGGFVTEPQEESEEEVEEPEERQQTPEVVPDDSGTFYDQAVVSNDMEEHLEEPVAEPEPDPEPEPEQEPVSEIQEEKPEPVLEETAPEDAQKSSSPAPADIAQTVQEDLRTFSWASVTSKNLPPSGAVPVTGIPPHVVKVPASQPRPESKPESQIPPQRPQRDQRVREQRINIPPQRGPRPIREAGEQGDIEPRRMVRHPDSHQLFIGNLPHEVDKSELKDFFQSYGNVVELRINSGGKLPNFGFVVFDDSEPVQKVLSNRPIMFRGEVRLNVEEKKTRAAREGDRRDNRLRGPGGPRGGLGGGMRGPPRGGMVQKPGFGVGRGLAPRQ
Method: RNA Bind-n-Seq
Molecule type: RNA
Medium: in vitro
Tested at: 1 µM
Notes: whole 134-nt RNA, ends assumed
Added: 150 mM KCl
Relative to: input library
Reading: higher = stronger binding
Quantity: log2 enrichment
Oligonucleotide = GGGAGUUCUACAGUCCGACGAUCAAACUUUAGAGGAGGAUCUGAUGGAUAUGGCAGUGGACGUGGAUUUGGGGAUGGCUAUAAUGGGUAUGGAGGAGGACCUGGAGGUGGCAAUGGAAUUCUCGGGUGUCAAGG; result = -0.785
Oligonucleotide = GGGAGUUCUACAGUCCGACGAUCACCAUGCAGGUGGGCAUCUUUGGGAAGUGGGGCAAGGGGGGGAUAGGGAGGGGGGUAAUACUUUGGGAACAGGUGGUCCCAGGUCGUUUCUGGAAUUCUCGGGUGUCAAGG; result = 1.01
Oligonucleotide = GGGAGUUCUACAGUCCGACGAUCUCCUGUGCUACACAUCGUAUGUACCGAAUCGGGGUUUUUUGGUUUUUUGGUUUUUUGGGAAAGUAUUAUGUUACGCCGUUCGGAUCUGCAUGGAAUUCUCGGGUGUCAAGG; result = -0.178
Oligonucleotide = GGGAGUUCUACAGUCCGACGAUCGCAGGAAGUAAAAACAAAUGGAAAUGCUUCGGAUAGUGGCAGGGGUGGGGGUUGCUAAGGAAAGGGUGGAAUGGGAGUGGGUAAAGAGUUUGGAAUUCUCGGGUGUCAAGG; result = 1.36
Oligonucleotide = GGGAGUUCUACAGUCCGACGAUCGCAGGAAGUAAAAACAAAUGGAAAUGCUUCGGAUAGUGGCAGGGGUGGGGGUUGCUAAGGAAAGGGUGGGAUGGGAGUGGGAAAAGAGUUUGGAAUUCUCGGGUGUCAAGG; result = 1.15
Oligonucleotide = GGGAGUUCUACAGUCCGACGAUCUGCAGCUCUCCGGCUGGGAUCCUGGUUGACGCCAUGUCCCAGAAGCACCUUCAGAUCAACCAGACAUUUGAGGAGCUGCGACUGGUCACGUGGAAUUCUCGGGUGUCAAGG; result = -0.421
Oligonucleotide = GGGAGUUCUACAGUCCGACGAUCCACAGACAACACGCAGCCACACAGACACAGAGGGAAGGGGUUGGGAUGGGGACAGGGUGCACAGCAGGGCGGGGUAGGACCCCAGCCCCUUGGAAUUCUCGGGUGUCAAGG; result = -0.0974
Oligonucleotide = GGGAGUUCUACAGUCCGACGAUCAGUCCUGUGCUACACAUCGUAUGUACCGAAUCGGGGAAAAGGGAAAAGGGGAAAAGGGAAAGUAUUAUGUUACGCCGUUCGGAUCUGCACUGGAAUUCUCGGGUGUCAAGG; result = 0.372

Block 5
Cell line: HEK-293T
Observed: pseudovirus infection
Method: FDA-approved drug library screen
Organism: VSV pseudotyped with SARS-CoV-2 spike
Tested at: 10 µM
Time: 16 h
Relative to: vehicle-treated
Quantity: GFP-positive cells
Compound = CN1CCC(OC(c2ccccc2)c2ccccc2)CC1; result = 71.6%
Compound = NS(=O)(=O)c1cc2c(cc1Cl)N=C(CSCc1ccccc1)NS2(=O)=O; result = 92.8%
Compound = O=C1Cc2cc(CCN3CCN(c4nsc5ccccc45)CC3)c(Cl)cc2N1; result = 91.3%
Compound = CC(C)(C)NCC(O)COc1cccc2c1CCC(=O)N2 (centres unmarked); result = 78.7%
Compound = CCC(=O)OCC(=O)[C@@]1(OC(=O)CC)[C@@H](C)C[C@H]2[C@@H]3CCC4=CC(=O)C=C[C@]4(C)[C@@]3(F)[C@@H](O)C[C@@]21C; result = 90.5%
Compound = CC(C)C(=O)Oc1ccc(CO)cc1[C@H](CCN(C(C)C)C(C)C)c1ccccc1; result = 45.6%

Further values, each from its own experiment
Method: protein-binding microarray
Molecule type: double-stranded DNA, one strand shown
Medium: in vitro
Tested at: not given
Notes: k-mer, scored over probes, only values ≥0.25
Reading: higher = stronger binding
MYC bHLH-zipper, MAX partner unstated: Myc proto-oncogene protein, bHLH-zipper, MAX partner unstated (MYC, Homo sapiens, UniProt P01106, residues 368-449)
Sequence of UniProt P01106 (368-449, looked up): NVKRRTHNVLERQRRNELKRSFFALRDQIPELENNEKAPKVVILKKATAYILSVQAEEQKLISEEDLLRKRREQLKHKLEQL
Oligonucleotide = CAGGCACG; target = MYC bHLH-zipper, MAX partner unstated; E-score = 0.308
Oligonucleotide = ACCGCGAG; target = MYC bHLH-zipper, MAX partner unstated; E-score = 0.26
Oligonucleotide = ACAGTGCA; target = Protein C-ets-1 (ETS1, Homo sapiens, UniProt P14921, residues 1-441, Y397A, full length assumed); E-score = 0.254
Oligonucleotide = AGCACGTG; target = Protein max, full length (MAX, Homo sapiens, UniProt P61244-2, residues 1-151); E-score = 0.496

Excerpt of the above (block 1):
Structure (SMILES) = COc1oc(=O)c2cc(N)ccc2c1Cl; result = 0.95%
Structure (SMILES) = CN(CC[C@@H](Oc1ccc(-c2ccccc2)cc1)c1ccc(F)cc1)CC(=O)O; result = 5.59%
Structure (SMILES) = CC1(C)O[C@@H]2C[C@H]3[C@@H]4C[C@H](F)C5=CC(=O)C=C[C@]5(C)[C@H]4[C@@H](O)C[C@]3(C)[C@]2(C(=O)CO)O1; result = 18.5%
Structure (SMILES) = CCN1C[C@]2(OC(=O)c3ccccc3NC(C)=O)CC[C@H](OC)[C@@]34[C@@H]2C[C@@H]([C@@H]13)[C@@]1(O)C[C@H](OC)[C@H]2C[C@@H]4[C@]1(O)[C@H]2OC; result = -4.33%
Structure (SMILES) = c1ccc(CCCCN2CCC(c3ccccc3)CC2)cc1; result = -4.45%
Structure (SMILES) = O=C(Nc1ccccc1C(=O)Nc1ccc(CCO)cc1)c1ccc([N+](=O)[O-])cc1; result = 3.56%
Structure (SMILES) = O=C(O)[C@H]1O[C@H](O)[C@H](O)[C@@H](O)[C@@H]1O; result = 1.97%
